Measurements of several laboratories.
Lines come from different studies, so protocols differ. Numbers after ± are the reported error.

Cc1cc(Nc2nc(C[C@@]3(C(=O)O)CCN(Cc4cccc(Cl)c4F)[C@H](C)C3)cc(C)c2F)[nH]n1  tumour growth inhibition (mouse, IMR-32 neuroblastoma xenograft; oral, 2.5 mg/kg once daily): 73%
CC(C)C[C@H](NC=O)C(=O)N[C@@H](C)C(=O)N[C@@H](C)C(=O)N[C@@H](CC(=O)O)C(=O)N[C@@H](CC(C)C)C(=O)N[C@@H](CC(C)C)C(=O)N[C@@H](C)C(=O)N[C@@H](C)C(=O)N[C@@H](CC(C)C)C(=O)NCC(=O)N[C@@H](CC(=O)O)C(=O)N[C@@H](CC(C)C)C(=O)N[C@@H](C)C(=O)N[C@@H](CCCCN)C(=O)N[C@@H](Cc1c[nH]c2ccccc12)C(=O)N[C@@H](CC(C)C)C(=O)N[C@@H](CC(C)C)C(=O)N[C@@H](CC(=O)O)C(=O)N[C@@H](C)C(=O)N[C@@H](CC(C)C)C(=O)N[C@@H](C)C(=O)N[C@@H](CCCCN)C(=O)N[C@@H](C)C(=O)N[C@@H](C)C(=O)N[C@@H](CCCCN)C(=O)N[C@@H](CCCCN)C(=O)O (racemic)  static quenching constant (POPC vesicles): 80 M⁻¹
NCCCC[C@H](NC(=O)CNC(=O)CNC(=O)[C@H](CCCCN)NC(=O)CNC(=O)CNC(=O)CNC(=O)[C@H](CCCCN)NC(=O)CNC(=O)CNC(=O)[C@H](CCCCN)NC(=O)CNC(=O)CNC(=O)CNC(=O)[C@H](CCCCN)NC(=O)CNC(=O)CNC(=O)[C@H](CCCCN)NC(=O)CNC(=O)CNC(=O)CNC(=O)[C@H](CCCCN)NC(=O)CNC(=O)CNC(=O)[C@H](CCCCN)NC(=O)[C@H](CO)NC(=O)[C@H](Cc1ccc(O)cc1)NC(=O)CNC(=O)CNC(=O)CN)C(=O)NCC(=O)O  bound fraction (binding; AA amyloid mouse liver homogenate; 1 h, room temperature): 21%
CC1(C)SSC(C)(C)[C@@H](NC(=O)[C@@H](N)Cc2ccc(O)cc2)C(=O)NCC(=O)N[C@@H](Cc2ccccc2)C(=O)N[C@H]1C(=O)O  ED50 (analgesia, radiant heat tail flick; CD1 mouse; intracerebroventricular, 15 min): 0.4 µg
CC[C@H](C)[C@@H]1NC(=O)[C@@H](NC(=O)CNC(=O)c2ccc(F)cc2)CSSC[C@@H]2NC(=O)[C@H](C)NC(=O)CNC(=O)[C@@H]3CCCN3C(=O)[C@@H]3CSSC[C@@H](C(=O)NCC(=O)O)NC(=O)[C@H](Cc4ccc(O)cc4)NC(=O)CNC(=O)[C@H](CC(N)=O)NC(=O)CNC(=O)[C@H](CCCNC(=N)N)NC(=O)[C@H](CSSC[C@H](NC(=O)[C@H](CCCNC(=N)N)NC(=O)[C@H](Cc4ccccc4)NC(=O)[C@H](CC(C)C)NC(=O)[C@H](CC(C)C)NC(=O)[C@H]([C@@H](C)O)NC(=O)CNC(=O)[C@H](CC(C)C)NC(=O)[C@H](CC(=O)O)NC(=O)[C@H]([C@@H](C)O)NC(=O)[C@H](CCCNC(=N)N)NC(=O)[C@H](CCSC)NC(=O)[C@H](CC(N)=O)NC(=O)[C@H](CC(C)C)NC1=O)C(=O)N[C@@H](CCCNC(=N)N)C(=O)N[C@@H](CCCNC(=N)N)C(=O)N[C@@H](CC(=O)O)C(=O)N[C@@H](CO)C(=O)N[C@@H](CC(=O)O)C(=O)N3)NC(=O)[C@H]([C@@H](C)CC)NC2=O [fluorine-18 labelled]  tumour uptake (PET; mouse, BXPC-3 xenograft; intravenous, 1 h): 1.9 ± 0.5 %ID/g
CC(C)C[C@@H]1NC(=O)[C@H](C(C)C)NC(=O)[C@H](CO)NC(=O)CNC(=O)CNC(=O)[C@H](CCCNC(=N)N)NC(=O)[C@@H]2CCCN2C(=O)[C@@H](NC(=O)CC[C@H](NC(=O)c2ccc(N(C)Cc3cnc4nc(N)nc(N)c4n3)cc2)C(=O)O)C(C)(C)SSC[C@@H](C(=O)O)NC(=O)CNC(=O)[C@H]([C@@H](C)O)NC(=O)[C@H](C(C)C)NC1=O  liver weight increase suppression (rat adjuvant arthritis; intravenous, 5 mg/kg once daily, day 14; relative to: arthritis vehicle): 78%
CCn1c2ccccc2c2cc(C(O)c3ccc(C)c4ccccc34)ccc21 (centres unmarked)  IC50 (tubulin polymerisation, inhibitor, absorbance): 1400 nM
C[C@H](NC(=O)[C@H](CCC(N)=O)NC(=O)[C@H](C)NC(=O)[C@H](CCCCN)NC(=O)[C@H](CCC(N)=O)NC(=O)[C@H](C)NC(=O)[C@H](CCCCN)NC(=O)[C@H](CCC(N)=O)NC(=O)[C@H](C)NC(=O)[C@H](CCC(N)=O)NC(=O)[C@H](CCCCN)NC(=O)[C@H](C)NC(=O)[C@H](CCC(N)=O)NC(=O)[C@H](CCCCN)NC(=O)[C@H](C)NC(=O)[C@H](CCC(N)=O)NC(=O)[C@H](C)NC(=O)[C@H](CCCCN)NC(=O)[C@H](CCC(N)=O)NC(=O)[C@H](C)NC(=O)[C@H](CCCCN)NC(=O)[C@H](CO)NC(=O)[C@H](Cc1ccc(O)cc1)NC(=O)CNC(=O)CNC(=O)CN)C(=O)N[C@@H](CCCCN)C(=O)N[C@@H](CCC(N)=O)C(=O)N[C@@H](C)C(=O)N[C@@H](CCCCN)C(=O)N[C@@H](CCC(N)=O)C(=O)O  binding ratio (human IAPP fibrils; 1 h, room temperature; relative to: 1 M NaCl over PBS): 0.26
CC1=C(C(=O)Nc2ccc(F)cc2)C(c2ccccc2Br)NC(=S)N1 (centres unmarked)  IC50 (contraction, calcium channel antagonist; isolated rat ileum; added: K+ 80 mM): 22.6 ± 2.39 µg/mL
C[C@H](NC(=O)[C@H](CCC(N)=O)NC(=O)[C@H](CCCCN)NC(=O)[C@H](C)NC(=O)[C@@H]1CCCN1C(=O)[C@H](C)NC(=O)[C@H](CCCCN)NC(=O)[C@H](CCC(N)=O)NC(=O)[C@H](C)NC(=O)[C@H](CCCCN)NC(=O)[C@H](CCC(N)=O)NC(=O)[C@@H]1CCCN1C(=O)[C@H](CCC(N)=O)NC(=O)[C@H](CCCCN)NC(=O)[C@H](C)NC(=O)[C@H](CCC(N)=O)NC(=O)[C@H](CCCCN)NC(=O)[C@H](C)NC(=O)[C@@H]1CCCN1C(=O)[C@H](C)NC(=O)[C@H](CCCCN)NC(=O)[C@H](CCC(N)=O)NC(=O)[C@H](C)NC(=O)[C@H](CCCCN)NC(=O)[C@H](CO)NC(=O)[C@H](Cc1ccc(O)cc1)NC(=O)CNC(=O)CNC(=O)CN)C(=O)N[C@@H](CCCCN)C(=O)N[C@@H](CCC(N)=O)C(=O)O  binding ratio (rVλ6Wil fibrils; 1 h, room temperature, 0.05% Tween-20; relative to: 1 M NaCl over PBS): 0.01
Cc1cc(O)c(I)c(C)c1C[C@H](N)C(=O)N[C@H](C)C(=O)N[C@@H](Cc1ccccc1)C(=O)N[C@@H](Cc1ccccc1)C(N)=O  ED50 (analgesia, tail flick; C57BL/6 wild-type mouse; intrathecal): 1.72 µg
Cc1ccc(/C=C/C(=O)O)cc1-c1cc2c(cc1C)C(C)(C)CCC2(C)C  log2 fold change (RNA sequencing, refers to: Cyp26a1 mRNA; rat, brain; dose not given, 24 h, single dose; relative to: vehicle): 0.061
CCc1nnc(-c2c(OC)cc(-c3cnc4cc(-c5cnn(C)c5)ccn34)cc2OC)o1  protein level (immunohistochemistry, refers to: sclerostin; male C57BL/6J mice, tibia; oral gavage, dose not given, 3 weeks): decreased
CC(=O)N[C@@H](Cc1c[nH]c2ccccc12)C(=O)NCC(=O)N[C@@H](C)C(=O)N[C@H]1CSCC(=O)Nc2ccc(cc2)N=Nc2ccc(c(S(=O)(=O)O)c2)-c2ccc(cc2S(=O)(=O)O)N=Nc2ccc(cc2)NC(=O)CSC[C@@H](C(=O)N[C@@H](CCCNC(=N)N)C(=O)N[C@@H](CCC(=O)O)C(=O)N[C@@H](C)C(=O)N[C@@H](C)C(=O)N[C@@H](C)C(=O)N[C@@H](CCCNC(=N)N)C(=O)N[C@@H](CCC(=O)O)C(=O)N[C@@H](C)C(=O)N[C@@H](CCC(N)=O)C(N)=O)NC(=O)[C@H](C)NC(=O)[C@H](C)NC(=O)[C@H](CCC(=O)O)NC(=O)[C@H](CCCNC(=N)N)NC(=O)[C@H](C)NC(=O)[C@H](C)NC(=O)[C@H](C)NC(=O)[C@H](CCC(=O)O)NC(=O)[C@H](CCCNC(=N)N)NC(=O)[C@H](C)NC(=O)[C@H](C)NC(=O)[C@H](C)NC(=O)[C@H](CCC(=O)O)NC1=O  thermal relaxation half-life (cis-to-trans reversion, UV-Vis absorbance; 10 mM phosphate buffer; pH 7.0, 20 °C, added: 365 nm irradiation): 10.6 ± 1.1 min
C=C(NC(=O)C(=C)NC(=O)c1csc(C2=NC3c4csc(n4)C4NC(=O)c5csc(n5)C(C(C)(O)C(C)O)NC(=O)C5CSC(=N5)C(=CC)NC(=O)C(C(C)O)NC(=O)c5csc(n5)C3(CC2)NC(=O)C(C)NC(=O)C(=C)NC(=O)C(=C)NC(=O)C(C(C)CC)NC2C=Cc3c(C(C)O)cc(nc3C2O)C(=O)OC4C)n1)C(N)=O (centres unmarked)  IC50 (protein synthesis, coupled transcription-translation, refers to: luciferase; Escherichia coli S30 extract; 1 h, 37 °C): 580 ± 30 nM
CCN(CCCCOc1ccc(CCC(=O)N2CCC(Cc3ccccc3)CC2)cc1OC)Cc1ccccc1  protein level (decrease, ELISA, refers to: IL-1β; APP/PS1 transgenic mice, cerebral cortex; dose not given): decreased
CC[C@H](C)[C@H](NC(=O)[C@@H](NC(=O)[C@H](CC(=O)O)NC(C)=O)[C@@H](C)O)C(=O)N[C@@H](CCCNC(=N)N)C(=O)N[C@@H](CC(C)C)C(=O)N[C@@H](CC(C)C)C(=O)N[C@@H](Cc1ccccc1)C(=O)N[C@@H](CCC(N)=O)C(=O)N[C@@H](CC(C)C)C(=O)N[C@@H](CCSC)C(=O)N[C@@H](CCCNC(=N)N)C(=O)N1CCC[C@H]1C(=O)N1CCC[C@H]1C(=O)N[C@@H](CC(N)=O)C(=O)N[C@@H](CCSC)C(=O)N[C@H](C(=O)N1CCC[C@H]1C(=O)N[C@@H](C)C(=O)N[C@H](C(=O)N[C@@H](CC(N)=O)C(=O)N[C@@H](C)C(N)=O)C(C)C)[C@@H](C)O  α4β7− CCR9− cells (refers to: HA-29 tetramer; antigen-experienced tetramer+ CD4 T cells, healthy adults, HLA-DRB1*0101; dose not given): 28.6%

Repeated from above:
C[C@H](NC(=O)[C@H](CCC(N)=O)NC(=O)[C@H](C)NC(=O)[C@H](CCCCN)NC(=O)[C@H](CCC(N)=O)NC(=O)[C@H](C)NC(=O)[C@H](CCCCN)NC(=O)[C@H](CCC(N)=O)NC(=O)[C@H](C)NC(=O)[C@H](CCC(N)=O)NC(=O)[C@H](CCCCN)NC(=O)[C@H](C)NC(=O)[C@H](CCC(N)=O)NC(=O)[C@H](CCCCN)NC(=O)[C@H](C)NC(=O)[C@H](CCC(N)=O)NC(=O)[C@H](C)NC(=O)[C@H](CCCCN)NC(=O)[C@H](CCC(N)=O)NC(=O)[C@H](C)NC(=O)[C@H](CCCCN)NC(=O)[C@H](CO)NC(=O)[C@H](Cc1ccc(O)cc1)NC(=O)CNC(=O)CNC(=O)CN)C(=O)N[C@@H](CCCCN)C(=O)N[C@@H](CCC(N)=O)C(=O)N[C@@H](C)C(=O)N[C@@H](CCCCN)C(=O)N[C@@H](CCC(N)=O)C(=O)O  binding ratio (human IAPP fibrils; 1 h, room temperature; relative to: 1 M NaCl over PBS): 0.26
CC1=C(C(=O)Nc2ccc(F)cc2)C(c2ccccc2Br)NC(=S)N1 (centres unmarked)  IC50 (contraction, calcium channel antagonist; isolated rat ileum; added: K+ 80 mM): 22.6 ± 2.39 µg/mL
